# Results of several laboratories.
# Each numbered part is a random draw from the data of one study; scales do not carry over between parts. Values joined by “and” are separate records of one study, mostly repeats; a detail may differ.
# UniProt P43403, sequence (whole entry, looked up): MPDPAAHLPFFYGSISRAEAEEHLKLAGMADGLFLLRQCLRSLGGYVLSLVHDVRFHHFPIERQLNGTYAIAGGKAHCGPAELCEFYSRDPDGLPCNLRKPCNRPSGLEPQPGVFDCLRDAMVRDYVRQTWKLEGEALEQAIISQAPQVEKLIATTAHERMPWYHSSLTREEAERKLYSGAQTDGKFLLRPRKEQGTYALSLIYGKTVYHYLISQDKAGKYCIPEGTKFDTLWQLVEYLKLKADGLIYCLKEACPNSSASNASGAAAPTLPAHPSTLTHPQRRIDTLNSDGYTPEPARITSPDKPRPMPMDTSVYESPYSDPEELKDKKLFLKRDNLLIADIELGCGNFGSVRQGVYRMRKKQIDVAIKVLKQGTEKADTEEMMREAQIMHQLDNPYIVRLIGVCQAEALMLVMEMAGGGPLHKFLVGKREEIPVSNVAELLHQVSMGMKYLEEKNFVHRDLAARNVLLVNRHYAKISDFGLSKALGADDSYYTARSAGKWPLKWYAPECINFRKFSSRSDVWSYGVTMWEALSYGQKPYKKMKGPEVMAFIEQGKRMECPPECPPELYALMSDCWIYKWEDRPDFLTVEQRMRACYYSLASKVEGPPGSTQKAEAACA
# UniProt O96017, sequence (whole entry, looked up): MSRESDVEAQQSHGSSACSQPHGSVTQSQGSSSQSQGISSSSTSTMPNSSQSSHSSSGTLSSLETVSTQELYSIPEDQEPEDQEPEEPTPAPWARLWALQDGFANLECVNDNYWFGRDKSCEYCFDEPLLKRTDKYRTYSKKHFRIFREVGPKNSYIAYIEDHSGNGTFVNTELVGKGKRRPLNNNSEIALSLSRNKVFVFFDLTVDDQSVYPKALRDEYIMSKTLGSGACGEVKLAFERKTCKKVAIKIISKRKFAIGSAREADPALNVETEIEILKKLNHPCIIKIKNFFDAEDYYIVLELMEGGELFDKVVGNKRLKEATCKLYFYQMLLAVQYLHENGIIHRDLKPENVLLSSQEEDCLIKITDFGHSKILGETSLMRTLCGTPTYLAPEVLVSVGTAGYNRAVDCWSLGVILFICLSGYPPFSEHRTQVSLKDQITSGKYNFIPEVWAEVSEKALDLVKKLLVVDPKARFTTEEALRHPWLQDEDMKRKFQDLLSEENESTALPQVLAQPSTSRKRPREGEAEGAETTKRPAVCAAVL
# UniProt Q07002, sequence (whole entry, looked up): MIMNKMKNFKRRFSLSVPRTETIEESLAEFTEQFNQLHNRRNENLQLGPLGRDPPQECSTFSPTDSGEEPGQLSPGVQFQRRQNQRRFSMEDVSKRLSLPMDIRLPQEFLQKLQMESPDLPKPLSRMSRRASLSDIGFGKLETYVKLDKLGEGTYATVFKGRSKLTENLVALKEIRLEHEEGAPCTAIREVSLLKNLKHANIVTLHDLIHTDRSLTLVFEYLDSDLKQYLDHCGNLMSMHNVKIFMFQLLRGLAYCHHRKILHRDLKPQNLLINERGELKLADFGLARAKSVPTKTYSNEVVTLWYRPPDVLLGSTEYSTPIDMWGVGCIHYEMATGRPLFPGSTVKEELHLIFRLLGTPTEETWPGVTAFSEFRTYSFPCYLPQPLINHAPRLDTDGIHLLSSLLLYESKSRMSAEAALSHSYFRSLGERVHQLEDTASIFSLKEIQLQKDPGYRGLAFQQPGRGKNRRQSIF
# UniProt Q9UEE5, sequence (whole entry, looked up): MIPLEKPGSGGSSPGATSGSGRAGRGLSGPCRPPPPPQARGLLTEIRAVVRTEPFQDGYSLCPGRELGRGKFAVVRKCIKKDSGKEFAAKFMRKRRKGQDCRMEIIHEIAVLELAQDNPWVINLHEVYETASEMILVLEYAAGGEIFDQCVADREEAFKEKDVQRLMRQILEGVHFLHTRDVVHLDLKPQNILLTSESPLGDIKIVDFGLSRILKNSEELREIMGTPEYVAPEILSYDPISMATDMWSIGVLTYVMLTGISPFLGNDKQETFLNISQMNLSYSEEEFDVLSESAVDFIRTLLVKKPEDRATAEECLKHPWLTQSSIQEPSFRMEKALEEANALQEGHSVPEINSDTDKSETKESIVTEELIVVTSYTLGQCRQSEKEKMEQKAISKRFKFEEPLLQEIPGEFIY
# UniProt Q9P2K8, sequence (whole entry, unmodified, looked up): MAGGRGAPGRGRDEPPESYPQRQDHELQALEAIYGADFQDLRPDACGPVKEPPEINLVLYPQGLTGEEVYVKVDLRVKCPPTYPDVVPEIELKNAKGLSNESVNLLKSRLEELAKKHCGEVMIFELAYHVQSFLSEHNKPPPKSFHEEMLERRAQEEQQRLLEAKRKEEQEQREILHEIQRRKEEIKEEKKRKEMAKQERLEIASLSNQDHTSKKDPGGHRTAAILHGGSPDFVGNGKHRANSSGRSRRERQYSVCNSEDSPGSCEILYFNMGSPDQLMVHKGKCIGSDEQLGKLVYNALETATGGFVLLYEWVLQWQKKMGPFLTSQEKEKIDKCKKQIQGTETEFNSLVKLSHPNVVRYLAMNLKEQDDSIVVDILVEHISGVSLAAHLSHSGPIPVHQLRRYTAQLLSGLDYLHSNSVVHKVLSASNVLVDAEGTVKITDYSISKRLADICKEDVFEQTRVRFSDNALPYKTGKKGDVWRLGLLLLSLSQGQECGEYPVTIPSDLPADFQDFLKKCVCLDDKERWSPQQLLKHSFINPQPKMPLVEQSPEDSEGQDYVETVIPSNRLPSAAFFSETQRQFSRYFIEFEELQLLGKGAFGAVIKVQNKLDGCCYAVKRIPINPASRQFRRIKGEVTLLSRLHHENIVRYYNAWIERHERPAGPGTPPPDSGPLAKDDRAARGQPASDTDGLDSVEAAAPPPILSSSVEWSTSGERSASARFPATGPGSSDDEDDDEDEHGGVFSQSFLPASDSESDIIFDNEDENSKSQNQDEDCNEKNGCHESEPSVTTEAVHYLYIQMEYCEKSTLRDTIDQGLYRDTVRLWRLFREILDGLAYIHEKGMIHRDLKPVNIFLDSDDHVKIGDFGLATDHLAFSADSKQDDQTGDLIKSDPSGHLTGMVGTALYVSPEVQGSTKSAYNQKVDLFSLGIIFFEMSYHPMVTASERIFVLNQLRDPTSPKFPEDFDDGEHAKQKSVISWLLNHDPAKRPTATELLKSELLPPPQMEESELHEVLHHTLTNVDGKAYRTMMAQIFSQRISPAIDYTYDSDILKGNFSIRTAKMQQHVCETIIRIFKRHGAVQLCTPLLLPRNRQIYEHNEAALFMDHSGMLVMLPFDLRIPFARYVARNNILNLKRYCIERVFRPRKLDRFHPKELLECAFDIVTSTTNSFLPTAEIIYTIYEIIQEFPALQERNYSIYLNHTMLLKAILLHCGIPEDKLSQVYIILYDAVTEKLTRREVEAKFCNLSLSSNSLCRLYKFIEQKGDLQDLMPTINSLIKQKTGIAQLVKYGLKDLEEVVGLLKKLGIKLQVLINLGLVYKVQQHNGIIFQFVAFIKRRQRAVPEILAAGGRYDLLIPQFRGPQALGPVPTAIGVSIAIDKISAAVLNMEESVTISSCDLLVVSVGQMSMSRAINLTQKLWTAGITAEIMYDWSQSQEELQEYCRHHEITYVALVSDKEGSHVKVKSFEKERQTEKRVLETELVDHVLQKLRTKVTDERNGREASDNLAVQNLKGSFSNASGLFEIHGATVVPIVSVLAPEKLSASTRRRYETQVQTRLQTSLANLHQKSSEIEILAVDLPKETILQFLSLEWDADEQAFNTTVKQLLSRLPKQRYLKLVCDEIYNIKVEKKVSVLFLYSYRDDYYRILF
# UniProt P28482, sequence (whole entry, looked up): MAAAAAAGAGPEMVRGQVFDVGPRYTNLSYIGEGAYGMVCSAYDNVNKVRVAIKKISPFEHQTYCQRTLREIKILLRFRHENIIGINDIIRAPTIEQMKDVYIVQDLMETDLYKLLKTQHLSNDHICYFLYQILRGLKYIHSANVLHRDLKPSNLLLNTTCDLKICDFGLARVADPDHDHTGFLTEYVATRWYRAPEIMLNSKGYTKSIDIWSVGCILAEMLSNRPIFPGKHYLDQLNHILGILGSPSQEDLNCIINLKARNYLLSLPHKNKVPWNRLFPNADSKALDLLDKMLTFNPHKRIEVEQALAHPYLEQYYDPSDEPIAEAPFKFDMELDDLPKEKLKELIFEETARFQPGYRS

# Study 1
# Target: Eukaryotic initiation factor 4A-III (Homo sapiens, UniProt P38919)
# UniProt P38919, sequence (whole entry, looked up): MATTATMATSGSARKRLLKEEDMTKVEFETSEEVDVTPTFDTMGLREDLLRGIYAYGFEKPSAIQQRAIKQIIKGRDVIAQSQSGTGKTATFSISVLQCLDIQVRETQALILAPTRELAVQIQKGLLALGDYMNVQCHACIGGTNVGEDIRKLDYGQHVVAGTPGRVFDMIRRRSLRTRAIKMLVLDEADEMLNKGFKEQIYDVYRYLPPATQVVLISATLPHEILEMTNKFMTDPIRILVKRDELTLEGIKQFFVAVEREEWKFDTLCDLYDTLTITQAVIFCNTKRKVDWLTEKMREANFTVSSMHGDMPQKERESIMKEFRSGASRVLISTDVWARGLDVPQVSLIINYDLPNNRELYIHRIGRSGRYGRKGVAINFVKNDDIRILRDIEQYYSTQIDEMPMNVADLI
# Effect on: RNA clamping
# Method: fluorescence polarization
# Concentration: concentration not given
# Notes: mean of two replicates
# Added: FAM-labelled poly r(AG)8 RNA
Compound,fluorescence polarization change
COC(=O)[C@@H]1[C@@H](c2ccccc2)[C@]2(c3ccc(OC)cc3)Oc3cc(OC)cc(OC)c3[C@@]23OC(c2ccc(C(F)(F)F)cc2)=N[C@@]13O,-1.7 mP
COc1cc(F)cc2c1[C@]1(O)[C@H](O)[C@H](C#N)[C@@H](c3ccccc3)[C@]1(c1ccc(Br)cc1)O2,29 mP
COc1ccc([C@@]23Oc4cc(OC)cc(OC)c4[C@]2(O)C2=C(C(=O)N4CCC[C@@]4(C)N2)[C@H]3c2ccccc2)cc1,5.2 mP
C=CCN[C@@]12C(=O)[C@H](C(=O)OC)[C@@H](c3ccccc3)[C@]1(c1ccc(OC)cc1)Oc1cc(OC)cc(OC)c12,1.8 mP
COC(=O)[C@H]1C(=O)[C@@]2(NN(C)C)c3c(OC)cc(OC)cc3O[C@@]2(c2ccc(OC)cc2)[C@@H]1c1ccccc1,5 mP
CN[C@@]12C(=O)[C@H](C(=O)OC)[C@@H](c3ccccc3)[C@]1(c1ccc(OC)cc1)Oc1cc(OC)cc(OC)c12,7.7 mP
COc1ccc([C@]23Oc4cc(OC)cc(OC)c4[C@](O)(C2O)[C@H](c2c(F)c(F)c(F)c(F)c2F)[C@H]3c2ccccc2)cc1 (stereo partly drawn),4.9 mP
COC(=O)[C@@H]1[C@@H](c2ccccc2)[C@]2(c3ccc(OC)cc3)Oc3cc(OC)cc(OC)c3[C@@]23NC(N2CCOCC2)=N[C@@]13O,40.6 mP
COc1cc(OC)c2c(c1)O[C@@]1(c3ccc(Br)cc3)[C@H](c3ccccc3)c3c(nc(-c4ccccc4)[nH]c3=O)[C@@]21O,11.1 mP
COc1ccc([C@@]23Oc4cc(OC)cc(OC)c4[C@]2(O)c2nc(-c4cccc(OCc5ccccc5)c4)[nH]c(=O)c2[C@H]3c2ccccc2)cc1,1.6 mP
COC(=O)[C@@H]1[C@@H](O)[C@@]2(O)c3c(OC)cc(OS(=O)(=O)c4ccc(C)cc4)cc3O[C@@]2(c2ccc(Br)cc2)[C@H]1c1ccccc1,3.3 mP
COc1ccc([C@]23Oc4cc(OC)cc(OC)c4[C@](O)([C@H](C(=O)OCc4ccccc4)[C@H]2c2ccccc2)[C@@H]3O)cc1,1.6 mP

# Study 2
# Cell line: mouse MPNST tumor cells
# Method: high-content nuclear imaging
# Item: cell number
# Concentration: 10 µM
# Time: 12 h
# Notes: mean of 2 replicates
# Reference: plate mean
# Reading: higher = more cells
Compound,nuclei count
Cc1ccc(NC(=O)c2cccc(N(C)C)c2)cc1NC(=O)c1ccc(O)cc1,2.11 z-score
CC1=C(C(=O)O)N2C(=O)[C@@H](NC(=O)[C@H](N)c3ccc(O)cc3)[C@H]2SC1,0.182 z-score
Cc1cc(C)c(NC(=O)C2CC3CCC2C3)c(C)c1 (stereo not drawn),3.75 z-score
COc1ccc(-c2nnc(Nc3nc4c(OC)cccc4s3)o2)cc1,-0.92 z-score
Nc1nonc1C(=Nc1ccc(F)c(Cl)c1)NO,0.896 z-score
Cn1ncnc1COc1nn2c(-c3cc(F)ccc3F)nnc2cc1C(C)(C)C,0.0664 z-score
C=C1C[C@H]2[C@@H]3C=C(C)C4=CC(=O)CC[C@]4(C)[C@H]3CC[C@]2(C)[C@@]1(OC(C)=O)C(C)=O,2.2 z-score
CC1(C)O[C@@H]2C[C@H]3[C@@H]4C[C@H](F)C5=CC(=O)C=C[C@]5(C)[C@@]4(F)[C@@H](O)C[C@]3(C)[C@]2(C(=O)CO)O1,3.84 z-score
CN1CCN(c2cc(-c3ccccc3)nc(N)n2)CC1,2.19 z-score
Cc1ccc(CC2(O)CCN(CCOc3ccc(O)cc3)CC2)cc1,-0.674 z-score
Fc1ccccc1Nc1nc2nonc2nc1Nc1ccccc1F,0.964 z-score
CCCCCNC(=N)N/N=C/c1c[nH]c2ccc(OC)cc12,-4.85 z-score
CN/C(=N\CCSCc1nc[nH]c1C)NC#N,-0.0523 z-score and 3.78 z-score
CC(=O)NC(CC(=O)O)C(=O)NC(CCC(=O)O)C(=O)O (stereo not drawn),0.144 z-score

# Study 3
# SMILES: CN(C)C(=O)Cn1cc(-c2nc([C@@](C)(c3ccc(-c4cnc(N)nc4)cc3)C3CC3)no2)cn1
# Concentration: 1 µM
target,assay,remaining binding
"Serine/threonine-protein kinase Nek2 (NEK2, Homo sapiens, UniProt P51955)","cell-free assay, competition with immobilised ligand",97%
"5'-AMP-activated protein kinase catalytic subunit alpha-1 (PRKAA1, Homo sapiens, UniProt Q13131)","cell-free assay, competition with immobilised ligand",95%
"eIF-2-alpha kinase GCN2, C-terminal kinase domain (EIF2AK4, Homo sapiens, UniProt Q9P2K8, S808G)","cell-free assay, competition with immobilised ligand",100%
"Tyrosine-protein kinase ABL1, phosphorylated (ABL1, Homo sapiens, UniProt P00519, H396P)","cell-free assay, competition with immobilised ligand",76%
"Calcium/calmodulin-dependent protein kinase type 1D (CAMK1D, Homo sapiens, UniProt Q8IU85)","cell-free assay, competition with immobilised ligand",100%
"Mast/stem cell growth factor receptor Kit, autoinhibited (KIT, Homo sapiens, UniProt P10721)","cell-free assay, competition with immobilised ligand",86%
"Serine/threonine-protein kinase MRCK gamma (CDC42BPG, Homo sapiens, UniProt Q6DT37)",competition binding,87%
"Serine/threonine-protein kinase 17A (STK17A, Homo sapiens, UniProt Q9UEE5)","cell-free assay, competition with immobilised ligand",100%
"Mitogen-activated protein kinase 1 (MAPK1, Homo sapiens, UniProt P28482)","cell-free assay, competition with immobilised ligand",100%
"Mitogen-activated protein kinase kinase kinase 12 (MAP3K12, Homo sapiens, UniProt Q12852)","cell-free assay, competition with immobilised ligand",80%
"ALK tyrosine kinase receptor (ALK, Homo sapiens, UniProt Q9UM73, L1196M)","cell-free assay, competition with immobilised ligand",90%
"Phosphatidylinositol 4,5-bisphosphate 3-kinase catalytic subunit alpha isoform (PIK3CA, Homo sapiens, UniProt P42336, I800L)","cell-free assay, competition with immobilised ligand",54%
"Leucine-rich repeat serine/threonine-protein kinase 2 (LRRK2, Homo sapiens, UniProt Q5S007)","cell-free assay, competition with immobilised ligand",74%
"Serine/threonine-protein kinase tousled-like 2 (TLK2, Homo sapiens, UniProt Q86UE8)","cell-free assay, competition with immobilised ligand",100%
"Rhodopsin kinase GRK1 (GRK1, Homo sapiens, UniProt Q15835)","cell-free assay, competition with immobilised ligand",100%
"Tyrosine-protein kinase FRK (FRK, Homo sapiens, UniProt P42685)","cell-free assay, competition with immobilised ligand",90%
"Dual specificity testis-specific protein kinase 1 (TESK1, Homo sapiens, UniProt Q15569)","cell-free assay, competition with immobilised ligand",90%
"Tyrosine-protein kinase ABL1, non-phosphorylated (ABL1, Homo sapiens, UniProt P00519, F317I)","binding, competition with immobilised ligand",96%
"Atypical kinase COQ8A, mitochondrial (COQ8A, Homo sapiens, UniProt Q8NI60)","cell-free assay, competition with immobilised ligand",100%
"STE20-like serine/threonine-protein kinase (SLK, Homo sapiens, UniProt Q9H2G2)","cell-free assay, competition with immobilised ligand",94%
"Serine/threonine-protein kinase RIO1 (RIOK1, Homo sapiens, UniProt Q9BRS2)","cell-free assay, competition with immobilised ligand",100%
"Tyrosine-protein kinase ZAP-70 (ZAP70, Homo sapiens, UniProt P43403)","cell-free assay, competition with immobilised ligand",100%
"Tyrosine-protein kinase Fgr (FGR, Homo sapiens, UniProt P09769)","cell-free assay, competition with immobilised ligand",100%
"Cyclin-dependent kinase 18 (CDK18, Homo sapiens, UniProt Q07002)","cell-free assay, competition with immobilised ligand",100%
"Serine/threonine-protein kinase Chk2 (CHEK2, Homo sapiens, UniProt O96017)","cell-free assay, competition with immobilised ligand",100%

# Study 4
# Target: Glycogen synthase kinase-3 alpha (GSK3A, Homo sapiens, UniProt P49840)
# UniProt P49840, sequence (whole entry, looked up): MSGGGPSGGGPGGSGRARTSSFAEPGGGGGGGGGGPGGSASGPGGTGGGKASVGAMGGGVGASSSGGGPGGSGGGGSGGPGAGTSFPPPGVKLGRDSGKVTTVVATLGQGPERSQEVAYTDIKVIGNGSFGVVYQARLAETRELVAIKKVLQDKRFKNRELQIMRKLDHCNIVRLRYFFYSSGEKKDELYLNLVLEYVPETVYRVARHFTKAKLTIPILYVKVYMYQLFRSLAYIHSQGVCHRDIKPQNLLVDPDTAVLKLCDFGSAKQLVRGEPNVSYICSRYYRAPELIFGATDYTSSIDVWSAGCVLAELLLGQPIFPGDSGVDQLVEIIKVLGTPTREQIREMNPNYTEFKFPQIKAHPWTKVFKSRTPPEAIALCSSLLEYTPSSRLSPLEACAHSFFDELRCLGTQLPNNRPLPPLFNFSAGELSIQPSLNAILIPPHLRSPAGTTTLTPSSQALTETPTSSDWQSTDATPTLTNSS
# Effect on: enzyme activity
# Action: inhibitor
# Concentration: 0.5 µM
# Reference: control
SMILES,remaining activity [%]
Cn1cnc2cc3c(Nc4cccc(Br)c4)ncnc3cc21,100
Cc1nc(Nc2ncc(C(=O)Nc3c(C)cccc3Cl)s2)cc(N2CCN(CCO)CC2)n1,103
CC(C)[C@H](CO)Nc1nc(Nc2cccc(Cl)c2)c2ncn(C(C)C)c2n1,108
O=C(Nc1ccc(Cl)cc1)c1ccccc1NCc1ccncc1,80.1
CC(=O)O/N=C1/C(c2c(O)[nH]c3cc(Br)ccc23)=Nc2ccccc21,6.49
COc1cc2ncc(-c3ccccc3)nc2cc1OC,97.9
CCN1/C(=C/C(C)=O)Sc2ccc(OC)cc21,85.7
O=C1NC(=O)/C(=C/c2ccc3nccnc3c2)S1,88.8
CN(C)CCCn1cc(C2=C(c3c[nH]c4ccccc34)C(=O)NC2=O)c2ccccc21,11.2
C[S+]([O-])c1ccc(-c2nc(-c3ccncc3)c(-c3ccc(F)cc3)[nH]2)cc1 (stereo not drawn),94.1
CCC(=O)Nc1ccc2ncnc(Nc3cccc(Br)c3)c2c1,98.2
O=c1cc(N2CCOCC2)oc2c1ccc1ccccc12,97.1
COc1ccc(Cl)cc1NC(=O)Nc1cc(C)nc2ccccc12,124
Cn1cc(/C=C2\C(=O)Nc3ccc(S(N)(=O)=O)cc32)c2ccccc21,100
CS(=O)(=O)CCNCc1ccc(-c2ccc3ncnc(Nc4ccc(OCc5cccc(F)c5)c(Cl)c4)c3c2)o1,105
Nc1[nH]nc2nnc(-c3c(-c4ccccc4)nn4ccccc34)cc12,81.2
CCOc1cc2ncnc(Nc3cccc(Br)c3)c2cc1OCC,110
COc1ccc(-c2cnc3c(-c4ccsc4)cnn3c2)cc1,92.5
COc1cc2ncnc(Nc3ccc(OCc4ccccc4)cc3)c2cc1OC,104
COc1cc2ncnc(N3CCN(C(=O)Nc4ccc(Oc5ccccc5)cc4)CC3)c2cc1OC,95.8
CC(C)c1nn(-c2c(Cl)cccc2Cl)c2nc(Cc3ccc(OCCO)cc3)[nH]c(=O)c12,73.1
